Measurements gathered from unrelated publications.
± marks the error that the study gave.

CCn1cc(-c2cc(Cn3ccoc3=N)cc3c2CCN([C@@H](C)c2cc(OC)ccn2)C3=O)c(C(F)(F)F)n1
EC50 (COV434; cell growth, inhibitor; 120 h): 0.241 µM

CC(C)C[C@H](NC(=O)C[C@H](O)[C@H](CC(C)C)NC(=O)[C@H](Cc1c[nH]cn1)NC(=O)CNC(=O)[C@@H](NC(=O)[C@H](C)NC(=O)[C@H](Cc1c[nH]c2ccccc12)NC(=O)[C@H](CCC(N)=O)NC(=O)[C@@H](Cc1ccccc1)NC(=O)COCCOCCNC(=O)CCC(C(=O)O)N1CCN(CC(=O)O)CCN(CC(=O)O)CCN(CC(=O)O)CC1)C(C)C)C(N)=O (stereo partly drawn) [lutetium-177 labelled]
tissue uptake (female BALB/c nu/nu mice, kidneys; intravenous, 50 pmol, 24 h): 1.3 ± 0.3 %ID/g

COC(=O)[C@]12CCC(C)(C)C[C@H]1[C@H]1C(=O)C=C3[C@@]4(C)C=C(C#N)C(=O)C(C)(C)[C@@H]4CC[C@@]3(C)[C@]1(C)CC2
point of departure (HepG2; high content imaging, item: DNA structure; 24 h, representative mode): 0.891 µM

CC(=O)c1c(C)cc2cc(O)cc(O[C@@H]3O[C@H](CO)[C@@H](O)[C@H](O)[C@H]3O)c2c1O
cell viability (HK-2 co-cultured with HepaRG; MTT; 266.67 µM, 24 h; baseline: untreated control): 107 ± 8.07%

COc1cc(CCC(=O)O)ccc1O
IL-1β level (coculture, Caco-2, THP-1; ELISA; 50 ng/mL, 8 h, together with: LPS, IFNγ, ATP; baseline: untreated control): 8.4 ± 0.7 fold change

O=C(/C=C/C=C/C=C/C1CCCCC1)NC1=C[C@@](O)(/C=C/C=C/C=C/C(=O)NC2=C(O)CCC2=O)[C@@H]2O[C@@H]2C1=O
GI50 (MDST8; cell growth, CellTiter-Glo; 78 h): 18.5 µM

CC(=O)N1CCN(c2ccc(OCC3COC(Cn4ccnc4)(c4ccc(Cl)cc4Cl)O3)cc2)CC1 (stereo not drawn)
inhibition (THP-1; pyroptotic LDH release; 2 µM, 40 min, together with: LPS then nigericin): -21.2%

COc1cnc2cccc(N3CCc4c(cc(Cn5ccnc5C)cc4-c4cn(C)nc4C(F)(F)F)C3=O)c2c1
EC50 (OCUM1; cell growth, inhibitor; 120 h): 0.685 µM

CC(=O)N(c1onc(C)c1C)S(=O)(=O)c1ccc(N)cc1
inhibition (THP-1; pyroptotic LDH release; 2 µM, 40 min, together with: LPS then nigericin): -20.2%

CCn1cnc2c(-c3ccc(F)c(-c4ccc(S(=O)(=O)CC)cc4OC)c3)cnnc21
EC50 (HEK293T ATF4-FLuc reporter; ATF4 reporter gene, activator, luciferase reporter): 6.69 µM

Cn1cc(-c2ccc(-c3cncc(Cl)c3N3CCC4(CCNC4=O)CC3)cc2)cn1
log2 fold change (COLO 205; gene expression, microarray, item: FCGRT mRNA; concentration not given, 2 h; baseline: untreated cells): 2.76

CC(N)C12CC3CC(CC(C3)C1)C2 (stereo not drawn)
inhibition (THP-1; pyroptotic LDH release; 2 µM, 40 min, together with: LPS then nigericin): -19%

CCn1cc(-c2cc(Cn3ccnc3)cc3c2CCN([C@H](c2cc(OC)ccn2)C2CC2)C3=O)c(C(F)(F)F)n1
EC50 (NUGC-3; cell growth, inhibitor; 120 h): 0.00147 µM

CCOc1cc(-c2nccc3cc(OC)c(OC)cc23)cc(OCC)c1OCC
EC50 (HEK293T ATF4-FLuc reporter; ATF4 reporter gene, activator, luciferase reporter): > 9.96 µM

O=C1c2ccccc2C(=O)c2c1ccc(O)c2O
inhibition (THP-1; pyroptotic LDH release; 2 µM, 40 min, together with: LPS then nigericin): -19.1%

C[C@H](Nc1cc(-c2cnn(C)c2)cc(Nc2cnccn2)n1)c1ccc(F)cc1
EC50 (HEK293T ATF4-FLuc reporter; ATF4 reporter gene, activator, luciferase reporter): > 9.96 µM

COc1cc2c(c(O)c1OC)C(=O)c1c(cc(C)c(O[C@@H]3O[C@H](CO)[C@@H](O)[C@H](O)[C@H]3O)c1OC)C2=O
cell viability (HK-2 co-cultured with HepaRG; MTT; 33.33 µM, 24 h; baseline: untreated control): 83.5 ± 7.81%

C=CC[C@@H]1/C=C(\C)C[C@H](C)C[C@H](OC)[C@H]2O[C@@](O)(C(=O)C(=O)N3CCCC[C@H]3C(=O)O[C@H](/C(C)=C/[C@@H]3CC[C@@H](O)[C@H](OC)C3)[C@H](C)[C@@H](O)CC1=O)[C@H](C)C[C@@H]2OC
EC50 (HEK293T ATF4-FLuc reporter; ATF4 reporter gene, activator, luciferase reporter): 4.45 µM

CCCCN1C[C@H](O)[C@@H](O)[C@H](O)[C@H]1CO
inhibition (THP-1; pyroptotic LDH release; 2 µM, 40 min, together with: LPS then nigericin): 6.54%

CCCCCN(CCC12CC3CC(CC(C3)C1)C2)C(=O)NCCCc1ccncc1
EC50 (HEK293T ATF4-FLuc reporter; ATF4 reporter gene, activator, luciferase reporter): > 9.96 µM

Nc1cccc(C(=O)O)c1
inhibition (THP-1; pyroptotic LDH release; 2 µM, 40 min, together with: LPS then nigericin): 6.96%

Repeated from above:
CC(=O)N1CCN(c2ccc(OCC3COC(Cn4ccnc4)(c4ccc(Cl)cc4Cl)O3)cc2)CC1 (stereo not drawn)
inhibition (THP-1; pyroptotic LDH release; 2 µM, 40 min, together with: LPS then nigericin): -21.2%

C=CC[C@@H]1/C=C(\C)C[C@H](C)C[C@H](OC)[C@H]2O[C@@](O)(C(=O)C(=O)N3CCCC[C@H]3C(=O)O[C@H](/C(C)=C/[C@@H]3CC[C@@H](O)[C@H](OC)C3)[C@H](C)[C@@H](O)CC1=O)[C@H](C)C[C@@H]2OC
EC50 (HEK293T ATF4-FLuc reporter; ATF4 reporter gene, activator, luciferase reporter): 4.45 µM

CCOc1cc(-c2nccc3cc(OC)c(OC)cc23)cc(OCC)c1OCC
EC50 (HEK293T ATF4-FLuc reporter; ATF4 reporter gene, activator, luciferase reporter): > 9.96 µM
